Assay results gathered from unrelated publications.

Compound	test	test system	setting	tmax [h]
O=C(Nc1cnccc1Cl)N1CCN(Cc2ccc3c(c2)OC(F)(F)O3)CC1	–	human healthy young men, plasma	oral, 25 mg once daily, day 10, multiple dose median	1.25
N#Cc1ccc2c(c1)[C@H]1CCCN(C(=O)c3ccc4[nH]cnc4c3)[C@H]1C2	–	human, plasma	oral, 240 mg once daily, after first dose, median	1
Cc1cc(Nc2ccc(S(F)(F)(F)(F)F)cc2)n2nc(C(C)(F)F)nc2n1	LC-MS/MS	human vivax malaria patients, plasma	oral, 600 mg, median	6
C[C@H](O)c1cc(C(=O)N[C@@H](C)Cn2ccc(-c3ccc(C#N)c(Cl)c3)n2)n[nH]1	–	healthy male human, plasma	intravenous infusion, 100 µg 14C-labelled, 15 min infusion, microtracer, median	0.25
Cc1ccc([C@@H]2O[C@H](CO)[C@@H](O)[C@H](O)[C@H]2O)cc1Cc1ccc(-c2ccc(F)cc2)s1	–	human, maintenance hemodialysis patients	oral, 300 mg once daily, steady state, mean	2.7
CNC(=O)n1ccc2cc(Oc3ccnc(NC(=O)c4ccc(C5CCN(CCO)CC5)cc4)c3)c(OCCOC)cc21	–	healthy human, plasma	oral, 35 mg, median, added: rabeprazole 20 mg	6
COc1cc(N2CCC(N3CCN(C)CC3)CC2)ccc1Nc1ncnc(Nc2ccccc2S(=O)(=O)C(C)C)n1	–	human, plasma	oral, 325 mg, day 1	4.52
O=C(COc1ccc(Cl)cc1)NC12CC(c3nnc([C@H]4C[C@@H](OC(F)(F)F)C4)o3)(C1)C2	–	healthy human both sexes, plasma	oral, 145 mg once daily, day 1, median fasted	23.9

Excerpt of the above:
Compound	test	test system	setting	tmax [h]
O=C(COc1ccc(Cl)cc1)NC12CC(c3nnc([C@H]4C[C@@H](OC(F)(F)F)C4)o3)(C1)C2	–	healthy human both sexes, plasma	oral, 145 mg once daily, day 1, median fasted	23.9
